# Assay results pooled from the literature.
# “And” joins repeats or separate records; there may be more than shown. ± gives the spread as reported.
SMILES,target or system,test,system,setting,how to read,measurement,value
COc1ccc(-n2cc(C(=O)N3C[C@]4(OC(=O)c5ccccc5NC(C)=O)CC[C@H](OC)[C@@]56[C@@H]4C[C@@H]([C@@H]35)[C@@]3(O)C[C@H](OC)[C@H]4C[C@@H]6[C@]3(O)[C@H]4OC)nn2)cc1,,,"Sprague-Dawley rat, plasma","intravenous, 2 mg/kg, 2 h",,concentration,5.98 ng/mL
C[C@H]1[C@H](OC(=O)CCC(=O)OCc2nnn(-c3cc4ccc(O)cc4oc3=O)c2COC(=O)CCC(=O)O[C@@H]2O[C@@H]3O[C@@]4(C)CC[C@H]5[C@H](C)CC[C@@H]([C@H]2C)[C@@]35OO4)O[C@@H]2O[C@@]3(C)CC[C@H]4[C@H](C)CC[C@@H]1[C@@]24OO3,Plasmodium berghei,flow cytometry,infected mouse blood,"3 µM, 1 h",,uptake into uninfected RBC,3.1 ± 2 % stained cells
O=C1CC[C@@]2(O)[C@H]3Cc4ccc(O)c5c4[C@@]2(CCN3CCc2ccccc2)[C@H]1O5,,,,phenolate site,,log k protonation constant,8.03
O=C1NC2(CC2)COc2ncc(F)cc2[C@H]2COCCN2c2ccn3ncc1c3n2,,,"Sprague-Dawley rats, female, blood","oral, 20 mg/kg/day, end of treatment, 4-week subacute toxicity",,fibrinogen,3.08 ± 0.82 g/L
NC[C@]1(CC(=O)O)CC[C@H]([18F])CC1,,PET,"rhesus monkey, brain","intravenous, 180 min, baseline scan",,SUV,0.7
CC(=O)c1cccc(-c2nc(Nc3ccccc3)nc(N3CCOCC3)n2)c1,"Cytochrome P450 1A2 (CYP1A2, Homo sapiens, UniProt P05177)",,,10 µM,,inhibition,88%
COc1ccc2c3c1O[C@H]1[C@H](O)C=C[C@H]4[C@@H](C2)N(C)CC[C@@]341,,potentiometric titration,"methanol/water, extrapolated to water",,,log K,8.37
CNC(=O)C1CCCN(C(=O)C2CC3CCC2N3C(=O)[C@@H]2C[C@@H](O)CN2C(=O)NCc2cccc(Cl)c2F)C1 (mixture of isomers),CYP3A4 (human),"inhibitor, time-dependent inhibition",,"1.85 µM, preincubated without NADPH, with: midazolam substrate",reference: negative control,remaining activity,99.7%
Cc1nc2cccc(OCC(C)(C)C(=O)NC(C)C)c2c(N)c1C(=O)[O-].[Na+],Salmonella typhimurium,,TA100,"0.13 mg per plate, without S9, plate incorporation",,revertant colonies per plate,156 ± 3
O=C1CC[C@H]2[C@H]3Cc4ccc(O)c5c4[C@@]2(CCN3CCc2ccccc2)[C@H]1O5,,,,phenolate site,,log k protonation constant,7.96
Cc1ccc(NS(=O)(=O)c2c(C(=O)N3CCCCCC3)c(C)n(C)c2C)c(Cl)c1,CV-1,,African green monkey cells,"0.015 µM, 60 (unit not given)",,viability,100% and 90.8%

# Repeated from above:
SMILES,target or system,test,system,setting,how to read,measurement,value
O=C1CC[C@H]2[C@H]3Cc4ccc(O)c5c4[C@@]2(CCN3CCc2ccccc2)[C@H]1O5,,,,phenolate site,,log k protonation constant,7.96
NC[C@]1(CC(=O)O)CC[C@H]([18F])CC1,,PET,"rhesus monkey, brain","intravenous, 180 min, baseline scan",,SUV,0.7
